Published values of several laboratories.
Compare with care: the assays were run in different laboratories. Several values in a cell are separate wells, animals, samples, runs or records. ± gives the spread as reported.
Organism: Cryptosporidium parvum

| Structure (SMILES) | test | system | conditions | how to read | endpoint | result |
| --- | --- | --- | --- | --- | --- | --- |
| O=C(Cc1ccc(F)c(F)c1)N1CCN(c2ccc3nncn3n2)CC1 | high-content imaging | HCT-8 | – | – | EC50 | < 1000 nM |
| Cc1ccc(C(=O)c2cc(O)c(O)c([N+](=O)[O-])c2)cc1 | parasite growth | HCT-8 | 44 h | – | EC50 | no effect |
| CCCc1nn(C)c2c(=O)[nH]c(-c3cc(S(=O)(=O)N4CCN(C)CC4)ccc3OCC)nc12 | parasite growth, immunofluorescence imaging | HCT-8, Iowa | 667 nM | – | inhibition | -6.94% and -23.9% |
| O=C(Cc1cc(Cl)cc(C(F)(F)F)c1)N1CCN(c2ccc3nncn3n2)CC1 | parasite growth, high-content microscopy | HCT-8 | – | relative to: 3,5-dichloro analogue over compound EC50 | potency fold increase | 2 fold |
| COc1ccc(NC(=O)N2CCCCN3[C@H](COCCC(=O)O)[C@H](c4ccc(C#Cc5ccccc5)cc4)[C@@H]3C2)cc1 | parasite growth, high-content microscopy | Iowa (Bunch Grass Farm) | 1% FBS | – | EC50 | 4 nM |
| CC(=O)N[C@@H](CCCN)C(=O)O | image-based | HCT-8 | 1 mM, 24 h post-infection | relative to: PBS | relative parasite number | 1.07 ± 0.138 |
| c1ccc(CNc2nc(Nc3ccccc3)nc3ccccc23)cc1 | host cell invasion | – | 2× EC90, 3 h | relative to: control | inhibition | 52.1% and 98.1% and 91.8% |
| O=C(Cc1ccc(F)c(C(F)(F)F)c1)N1CCN(c2ccc3nncn3n2)CC1 | – | NSG mouse, persistent infection | oral | – | ED90 | < 5 mg/kg twice daily |
| NCCCN | image-based | HCT-8 | 1 mM, 24 h post-infection | relative to: PBS | relative parasite number | 1.01 ± 0.151 |
| O=C(Cc1cccc(-c2ccccc2)c1)N1CCN(c2ccc3nncn3n2)CC1 | high-content imaging | HCT-8 | – | – | EC50 | > 25000 nM |
| Cc1ncc(CO)c(CN)c1O.Cl.Cl | image-based | HCT-8 | 1 mM, 24 h post-infection | relative to: PBS | relative parasite number | 1.02 ± 0.141 |
| COc1ccc(NC(=O)N2CCCCN3C[C@H](c4ccc(C#Cc5ccccc5)cc4)[C@@H]3C2)cc1 | parasite growth, high-content microscopy | Iowa (Bunch Grass Farm) | 10% FBS | – | EC50 | 62 nM |
| CN1CCC[C@H]1C(=O)O | image-based | HCT-8 | 1 mM, 24 h post-infection | relative to: PBS | relative parasite number | 1.01 ± 0.155 |
| CC(=O)Oc1ccccc1C(=O)Nc1ncc([N+](=O)[O-])s1 | – | HCT-8 | EC90, 24 h | relative to: DMSO control | parasite number | 62.7% and 54.2% and 51.4% and 41.2% |
| COc1ccc(NC(=O)N2CCCCN3[C@H](CN(C)S(C)(=O)=O)[C@H](c4ccc(C#Cc5ccccc5)cc4)[C@@H]3C2)cc1 | parasite growth | Iowa (Sterling) | – | – | EC50 | 5 nM |
| CC(=O)N[C@@H](CC(=O)O)C(=O)O | image-based | HCT-8 | 1 mM, 24 h post-infection | relative to: PBS | relative parasite number | 0.97 ± 0.141 |
| COc1ccc(NC(=O)N2CCCCN3[C@H](CN(C)C)[C@H](c4ccc(C#Cc5ccccc5)cc4)[C@@H]3C2)cc1 | – | HCT-8 | concentration not given, 99.9% elimination | – | time to eliminate parasites | ~95 h |
| CCC(C)C(=O)C(=O)[O-].[Na+] (stereo not drawn) | image-based | HCT-8 | 1 mM, 24 h post-infection | relative to: PBS | relative parasite number | 0.927 ± 0.078 |

Excerpt of the above:
| Structure (SMILES) | test | system | conditions | how to read | endpoint | result |
| --- | --- | --- | --- | --- | --- | --- |
| O=C(Cc1cc(Cl)cc(C(F)(F)F)c1)N1CCN(c2ccc3nncn3n2)CC1 | parasite growth, high-content microscopy | HCT-8 | – | relative to: 3,5-dichloro analogue over compound EC50 | potency fold increase | 2 fold |
| Cc1ccc(C(=O)c2cc(O)c(O)c([N+](=O)[O-])c2)cc1 | parasite growth | HCT-8 | 44 h | – | EC50 | no effect |
